Assay results collected from several papers.
Each line is one published result; not all experiments were run side by side. ± gives the spread as reported.
Cell line: A549

CCN1CCN(Cc2ccc(C(=O)Nc3ccc(C)c(NCc4cnc5[nH]ccc5c4OC)c3)cc2C(F)(F)F)CC1
GI50 (cell growth or viability; 48 h): 2290 nM

N=C(N)NCCC[C@@H]1NC(=O)[C@H](CCCCN)NC(=O)[C@@H](Cc2ccc(O)cc2)NC(=O)[C@H](CC(=O)O)NC(=O)CNC1=O
total growth inhibition (MTT; 48 h): > 100 µM

CN(C)c1cccc2c(S(=O)(=O)NCCCCCC(=O)NO)cccc12
cells in S phase (cell cycle, propidium iodide flow cytometry; 10 µM): 2.03%

Cc1cc(-c2ccccc2)c2ccc3c(-c4ccccc4)cc(C)nc3c2n1.[Cl-].[Cl-].[Ru+2].c1ccc(-c2ccccn2)nc1.c1ccc(-c2ccccn2)nc1
time to plateau uptake (LC-MS/MS; 3 µM): 12 h

[Cl-].[Cl-].[Ru+2].c1ccc(-c2ccnc3c2ccc2c(-c4ccccc4)ccnc23)cc1.c1cnc2c(c1)ccc1cccnc12.c1cnc2c(c1)ccc1cccnc12
maximal respiration reduction (Seahorse Mito Stress Test; concentration not given, with: 450 nm light 29.1 J/cm2; relative to: vehicle): ≥ 90%

Nc1cccc[n+]1Cc1cccc(C[n+]2ccccc2N)c1
S phase cells (flow cytometry; 15 µM, 24 h): 11.5%

FC(F)(F)c1ccnc(-c2cc(C(F)(F)F)ccn2)c1.FC(F)(F)c1ccnc(-c2cc(C(F)(F)F)ccn2)c1.[Cl-].[Cl-].[Ru+2].c1cnc2c(c1)c1nc[nH]c1c1cccnc12
EC50 (cell growth or viability, resazurin; dark): > 300000 nM

Cc1cccc(NCC(=O)Nc2nc3ccccc3s2)c1
inhibition (cell growth or viability, MTT; 100 µM, 72 h): 3.73%

[Cl-].[Cl-].[Ru+2].c1ccc(-c2ccccn2)nc1.c1ccc(-c2ccccn2)nc1.c1ccc(-c2ccccn2)nc1
lowest concentration inhibiting OCR (oxygen consumption rate, Seahorse extracellular flux; 1 h, with: indigo light 450 nm, 29.1 J/cm2): > 25 µM

COc1ccc([C@@H]2CC(=O)c3c(O)cc(O[C@@H]4O[C@H](CO[C@@H]5O[C@@H](C)[C@H](O)[C@@H](O)[C@H]5O)[C@@H](O)[C@H](O)[C@H]4O)cc3O2)cc1O
gap closure (cell migration, scratch; 150 µg/mL, 0 h): 0%

CCN1CCC2(CC1)C/C(=N\NC(=O)Nc1ccccc1)c1ccccc1O2
apoptotic cells (annexin V-FITC/PI; concentration not given, 24 h, Late apoptosis): 11.5%

CCN(CC)c1ccc2c(c1)Oc1cc(N(CC)CC)ccc1C21c2ccccc2C(=O)N1N=Cc1c[c-]c(-c2ccccn2)cc1.Cc1c(C)c(-c2ccc(-c3ccccc3)cc2)[c-](C)c1C.[Cl-].[Ir+3]
Pearson correlation coefficient (confocal microscopy, refers to: lysosome colocalisation; 1×IC50, 1 h, with: LysoTracker Deep Red 500 nM): 0.87

CC1=CC(C)=[N+]2C1=C(CO)c1c(C)cc(C)n1[B-]2(C)C
phototoxicity index (resazurin; 0.1667 h, with: 510 nm light, 10 min; relative to: dark over light IC50): 100 ± 70

S=c1n(-c2ccccc2)c2c3ccccc3nc3[n+]2[n]1[Ir-3]12([S]3)([c]3ccc4ccccc4c3-c3sc4ccccc4[n+]31)[c]1ccc3ccccc3c1-c1sc3ccccc3[n+]12
phototoxicity index (relative to: IC50 dark over IC50 light): > 362

CCCC1OC2CC3C4CCC5=CC(=O)C=CC5(C)C4C(O)CC3(C)C2(C(=O)COC(=O)CN(CC)CC)O1 (stereo not drawn)
inhibition (IL-6 release, inhibitor, ELISA; 1 nM, 24 h, LPS-stimulated): > 50%

COc1cc(C(=O)c2[nH]c(N)nc2-c2cccs2)cc(OC)c1OC
inhibition (cell migration; 0.2 µM, 10 h): 58%

CC(=O)OC[C@H]1O[C@@H](Sc2sc(C(=O)c3ccc(C)cc3)c(N)c2-c2nc3ccccc3s2)[C@H](OC(C)=O)[C@@H](OC(C)=O)[C@H]1OC(C)=O
growth (SRB; 10 µM, 48 h): 89.2%

COc1cc(CNC(=O)C[C@H](C)CCC=C(C)C)ccc1OCc1cn(-c2ccc(Cl)c(Cl)c2)nn1
intracellular ROS (DCFDA fluorescence; 5 to 1.5 µM, 48 h): increased

Excerpt of the above:
CC1=CC(C)=[N+]2C1=C(CO)c1c(C)cc(C)n1[B-]2(C)C
phototoxicity index (resazurin; 0.1667 h, with: 510 nm light, 10 min; relative to: dark over light IC50): 100 ± 70

CC(=O)OC[C@H]1O[C@@H](Sc2sc(C(=O)c3ccc(C)cc3)c(N)c2-c2nc3ccccc3s2)[C@H](OC(C)=O)[C@@H](OC(C)=O)[C@H]1OC(C)=O
growth (SRB; 10 µM, 48 h): 89.2%
